Assay results from different studies.
Each line is one published result; not all experiments were run side by side. “And” joins repeats or separate records; there may be more than shown. Numbers after ± are the reported error.
Tripartite terminase subunit 3 C-terminal nuclease domain: Tripartite terminase subunit 3, C-terminal nuclease domain (Human betaherpesvirus 5, UniProt P16732)
Chain of UniProt P16732 (whole entry, looked up): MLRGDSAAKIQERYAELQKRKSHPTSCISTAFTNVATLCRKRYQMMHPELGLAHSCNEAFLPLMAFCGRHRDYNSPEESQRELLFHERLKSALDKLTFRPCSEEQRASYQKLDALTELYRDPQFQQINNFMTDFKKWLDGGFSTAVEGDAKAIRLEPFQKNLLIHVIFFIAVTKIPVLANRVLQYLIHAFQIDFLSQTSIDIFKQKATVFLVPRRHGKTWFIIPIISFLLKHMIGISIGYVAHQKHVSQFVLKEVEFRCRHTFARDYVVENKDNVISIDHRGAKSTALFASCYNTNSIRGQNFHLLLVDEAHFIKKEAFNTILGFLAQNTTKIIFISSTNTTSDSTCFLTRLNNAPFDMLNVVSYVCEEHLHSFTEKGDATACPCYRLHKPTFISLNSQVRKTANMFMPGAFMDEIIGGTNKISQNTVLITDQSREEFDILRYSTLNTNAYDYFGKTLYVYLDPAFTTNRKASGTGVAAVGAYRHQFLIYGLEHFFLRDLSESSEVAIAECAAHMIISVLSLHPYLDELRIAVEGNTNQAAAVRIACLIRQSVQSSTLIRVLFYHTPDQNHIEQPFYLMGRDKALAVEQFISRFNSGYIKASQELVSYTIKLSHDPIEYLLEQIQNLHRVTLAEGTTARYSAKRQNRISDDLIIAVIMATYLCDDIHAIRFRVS
Genome polyprotein NS2B-NS3 protease: Genome polyprotein, NS2B-NS3 protease (ZIKV, UniProt A0A024B7W1)
DDB1/DCAF12: DDB1/DCAF12 (Homo sapiens, UniProt Q16531+Q5T6F0)
Chain of UniProt Q5T6F0 (whole entry, looked up): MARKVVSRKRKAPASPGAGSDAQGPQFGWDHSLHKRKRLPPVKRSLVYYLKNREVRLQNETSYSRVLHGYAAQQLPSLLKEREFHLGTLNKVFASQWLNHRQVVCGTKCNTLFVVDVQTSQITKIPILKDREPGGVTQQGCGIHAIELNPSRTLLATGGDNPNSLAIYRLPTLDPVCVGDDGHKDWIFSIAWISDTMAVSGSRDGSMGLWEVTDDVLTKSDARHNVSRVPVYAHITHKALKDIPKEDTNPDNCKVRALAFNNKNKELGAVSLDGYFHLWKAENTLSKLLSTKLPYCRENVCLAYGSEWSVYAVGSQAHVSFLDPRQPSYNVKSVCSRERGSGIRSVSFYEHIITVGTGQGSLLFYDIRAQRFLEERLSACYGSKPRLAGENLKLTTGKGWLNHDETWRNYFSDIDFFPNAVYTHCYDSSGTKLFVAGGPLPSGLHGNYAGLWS
Chain of UniProt Q16531 (whole entry, looked up): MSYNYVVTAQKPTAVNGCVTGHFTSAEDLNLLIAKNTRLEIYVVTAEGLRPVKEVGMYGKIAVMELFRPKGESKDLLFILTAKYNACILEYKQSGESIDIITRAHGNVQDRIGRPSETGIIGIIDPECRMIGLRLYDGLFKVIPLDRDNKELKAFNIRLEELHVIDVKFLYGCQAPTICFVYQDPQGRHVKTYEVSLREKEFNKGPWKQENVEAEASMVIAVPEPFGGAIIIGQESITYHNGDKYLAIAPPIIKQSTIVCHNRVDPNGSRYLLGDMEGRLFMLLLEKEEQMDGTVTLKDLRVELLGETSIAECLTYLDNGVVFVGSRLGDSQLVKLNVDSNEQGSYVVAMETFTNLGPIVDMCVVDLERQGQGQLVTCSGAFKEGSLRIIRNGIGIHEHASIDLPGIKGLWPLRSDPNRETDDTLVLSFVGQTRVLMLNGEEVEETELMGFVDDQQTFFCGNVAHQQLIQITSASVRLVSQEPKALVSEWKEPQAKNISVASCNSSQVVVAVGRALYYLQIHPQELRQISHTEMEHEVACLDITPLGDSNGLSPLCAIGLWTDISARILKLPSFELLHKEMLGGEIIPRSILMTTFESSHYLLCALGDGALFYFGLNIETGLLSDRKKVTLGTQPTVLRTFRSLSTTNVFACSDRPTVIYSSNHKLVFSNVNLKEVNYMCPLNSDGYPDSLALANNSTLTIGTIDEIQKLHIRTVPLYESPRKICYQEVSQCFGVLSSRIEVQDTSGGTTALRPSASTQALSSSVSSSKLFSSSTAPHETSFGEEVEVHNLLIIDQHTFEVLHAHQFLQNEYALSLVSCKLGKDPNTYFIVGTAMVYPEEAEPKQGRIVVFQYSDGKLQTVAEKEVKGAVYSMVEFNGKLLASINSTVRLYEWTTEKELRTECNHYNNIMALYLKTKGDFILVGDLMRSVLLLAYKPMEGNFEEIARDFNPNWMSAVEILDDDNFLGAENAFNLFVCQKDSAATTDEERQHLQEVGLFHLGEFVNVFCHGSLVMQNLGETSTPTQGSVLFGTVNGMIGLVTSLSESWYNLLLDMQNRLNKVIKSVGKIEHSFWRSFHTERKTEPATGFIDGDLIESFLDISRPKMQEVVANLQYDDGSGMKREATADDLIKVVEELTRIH
Chain of UniProt P0A7B1 (whole entry, looked up): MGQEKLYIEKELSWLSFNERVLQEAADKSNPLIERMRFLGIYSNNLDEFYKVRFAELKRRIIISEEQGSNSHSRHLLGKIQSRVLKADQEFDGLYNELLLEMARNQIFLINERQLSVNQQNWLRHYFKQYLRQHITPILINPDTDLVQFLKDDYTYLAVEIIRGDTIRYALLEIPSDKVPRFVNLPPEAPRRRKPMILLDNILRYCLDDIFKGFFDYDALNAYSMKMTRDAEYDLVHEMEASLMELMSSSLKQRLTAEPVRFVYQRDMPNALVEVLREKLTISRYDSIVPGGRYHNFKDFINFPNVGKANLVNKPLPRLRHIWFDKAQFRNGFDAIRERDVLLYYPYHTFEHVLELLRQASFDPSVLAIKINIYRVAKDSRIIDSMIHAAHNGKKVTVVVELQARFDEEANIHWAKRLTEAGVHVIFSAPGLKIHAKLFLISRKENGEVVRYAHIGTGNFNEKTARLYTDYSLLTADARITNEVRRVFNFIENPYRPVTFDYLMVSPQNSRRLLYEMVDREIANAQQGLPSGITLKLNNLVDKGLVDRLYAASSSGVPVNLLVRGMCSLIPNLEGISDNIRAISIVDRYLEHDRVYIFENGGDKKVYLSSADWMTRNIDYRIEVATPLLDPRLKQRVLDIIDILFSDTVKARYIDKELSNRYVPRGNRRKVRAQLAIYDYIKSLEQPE
Chain of UniProt P02716 (whole entry, looked up): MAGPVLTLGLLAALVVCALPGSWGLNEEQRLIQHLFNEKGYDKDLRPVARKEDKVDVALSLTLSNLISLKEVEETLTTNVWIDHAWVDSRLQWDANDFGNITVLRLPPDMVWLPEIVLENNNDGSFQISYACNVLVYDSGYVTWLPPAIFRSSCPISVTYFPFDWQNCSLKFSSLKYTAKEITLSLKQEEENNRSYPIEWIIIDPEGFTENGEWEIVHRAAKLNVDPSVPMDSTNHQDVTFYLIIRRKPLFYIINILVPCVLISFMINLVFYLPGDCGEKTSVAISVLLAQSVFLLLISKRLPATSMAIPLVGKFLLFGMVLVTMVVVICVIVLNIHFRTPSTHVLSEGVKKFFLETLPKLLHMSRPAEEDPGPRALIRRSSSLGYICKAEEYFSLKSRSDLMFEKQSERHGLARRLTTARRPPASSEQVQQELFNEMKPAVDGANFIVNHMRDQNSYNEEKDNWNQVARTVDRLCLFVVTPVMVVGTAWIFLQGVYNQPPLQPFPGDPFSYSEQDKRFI
Chain of UniProt Q05421 (whole entry, looked up): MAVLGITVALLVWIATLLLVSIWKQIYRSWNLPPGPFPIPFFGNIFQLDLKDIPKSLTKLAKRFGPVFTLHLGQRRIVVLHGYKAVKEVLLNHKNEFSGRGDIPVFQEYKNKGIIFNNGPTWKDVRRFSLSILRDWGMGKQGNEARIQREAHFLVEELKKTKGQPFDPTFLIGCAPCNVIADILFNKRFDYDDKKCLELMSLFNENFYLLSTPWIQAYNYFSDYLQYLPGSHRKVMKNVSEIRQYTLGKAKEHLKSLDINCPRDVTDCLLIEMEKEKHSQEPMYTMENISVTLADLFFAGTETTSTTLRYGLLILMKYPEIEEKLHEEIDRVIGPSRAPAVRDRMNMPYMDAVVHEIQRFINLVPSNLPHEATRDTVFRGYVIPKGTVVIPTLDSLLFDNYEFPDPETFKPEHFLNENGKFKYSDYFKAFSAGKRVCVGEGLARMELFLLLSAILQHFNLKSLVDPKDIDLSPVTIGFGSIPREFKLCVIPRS
Chain of UniProt O42275 (whole entry, looked up): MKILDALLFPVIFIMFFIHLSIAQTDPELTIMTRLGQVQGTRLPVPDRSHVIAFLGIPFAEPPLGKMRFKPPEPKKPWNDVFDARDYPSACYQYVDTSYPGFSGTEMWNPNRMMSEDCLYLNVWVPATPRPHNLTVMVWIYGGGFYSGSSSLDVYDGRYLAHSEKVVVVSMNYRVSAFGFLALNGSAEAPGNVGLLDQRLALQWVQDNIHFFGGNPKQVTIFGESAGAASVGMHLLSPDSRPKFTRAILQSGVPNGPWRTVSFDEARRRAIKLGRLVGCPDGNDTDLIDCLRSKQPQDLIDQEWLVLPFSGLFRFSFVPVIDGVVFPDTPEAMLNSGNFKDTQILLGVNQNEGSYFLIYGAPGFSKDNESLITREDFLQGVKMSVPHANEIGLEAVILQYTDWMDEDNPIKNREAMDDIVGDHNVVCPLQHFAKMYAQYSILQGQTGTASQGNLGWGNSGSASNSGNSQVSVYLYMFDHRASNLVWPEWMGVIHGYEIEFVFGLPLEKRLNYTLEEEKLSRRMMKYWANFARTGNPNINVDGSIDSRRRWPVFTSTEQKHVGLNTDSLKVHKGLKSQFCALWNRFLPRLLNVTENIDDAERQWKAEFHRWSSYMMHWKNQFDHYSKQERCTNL
Chain of UniProt Q2FDS6 (whole entry, looked up): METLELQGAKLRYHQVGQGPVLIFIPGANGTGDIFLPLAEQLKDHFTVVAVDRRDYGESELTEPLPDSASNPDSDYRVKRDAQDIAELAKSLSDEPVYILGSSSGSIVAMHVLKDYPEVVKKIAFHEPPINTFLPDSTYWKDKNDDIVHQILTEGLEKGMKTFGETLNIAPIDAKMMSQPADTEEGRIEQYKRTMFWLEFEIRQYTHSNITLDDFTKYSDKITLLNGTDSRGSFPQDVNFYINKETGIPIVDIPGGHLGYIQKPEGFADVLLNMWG

The IC50 of `O=c1[nH]c2scc(-c3ccccc3)c2c(=O)n1O` is reported as 5.6 ± 3.1 µM (Tripartite terminase subunit 3 C-terminal nuclease domain; endonuclease activity, inhibitor; added: dsDNA substrate).
For `COc1ccc(Nc2nc(Nc3ccc(OC)cc3OC)nc(N3CCOCC3)n2)c(OC)c1`, the cytotoxicity efficacy was 0% (Vero-E6; CellTiter-Glo ATP; concentration not given, 72 h, second round 5-point; relative to: DMSO 0%, hyamine -100%, more negative, more toxic).
For `CCC(C(=O)Nc1cc(NC2CNC2)ccc1C)n1cccc2nc(SCc3ccc(F)cc3)nc1-2` (stereo not shown), the IC50 was > 100 µM (USP1 (Homo sapiens, UniProt O94782); enzyme activity).
With `CC[C@H](C)[C@H](NC(=O)[C@@H](NC(=O)[C@@H](N)CCC(N)=O)C(C)C)C(=O)N[C@H](C(=O)N[C@H](C(=O)NCC(=O)N[C@@H](CC(N)=O)C(=O)O)[C@@H](C)CC)[C@@H](C)O` the IC50 was 3.43 µM (Protein cereblon, with DDB1 (CRBN, Homo sapiens, UniProt Q96SW2); binding, ligand, TR-FRET displacement).
With `Cc1nc2ccc(CN(C)c3ccc(C(=O)N[C@@H](CCC(=O)O)C(=O)O)s3)cc2c(=O)[nH]1` the maximum inhibition was 17.3% (human coronavirus OC43; virus-induced cell killing; MRC-5; screen).
`NCCOCC(=O)N1CCC[C@H](C(=O)NCc2nc(-c3ccc(C(F)(F)F)cc3)cs2)C1` has an IC50 of 0.077 µM (20S proteasome (Plasmodium falciparum, UniProt A0A5K1K7U1+Q8I261+Q8IJT1); Succ-LLVY-AMC 0.5 µM, added: WLW-vs 3 µM).
`C/C(=C\c1csc(C)n1)[C@@H]1C[C@@H]2O[C@@H]2CCC[C@H](C)[C@H](O)[C@@H](C)C(=O)C(C)(C)[C@@H](O)CC(=O)O1` has a maximum inhibition of 0% (human coronavirus OC43; virus-induced cell killing; MRC-5; maximum over 10 doses).
`COc1ccc(Nc2cc(C(=O)NCCCN3CCN(c4ccc(OC)cc4)CC3)c3ccccc3n2)cc1` has a maximum response of -21.2% (Vero-E6; CellTiter-Glo ATP; 72 h, second round 5-point; relative to: DMSO 0%, hyamine -100%, more negative, more toxic).
For `CC[C@H](C)C[C@H](C)CCCCCCCCC(=O)N[C@H]1C[C@@H](O)[C@@H](NCCN)NC(=O)[C@@H]2[C@@H](O)CCN2C(=O)[C@H]([C@H](O)CCN)NC(=O)[C@H]([C@H](O)[C@@H](O)c2ccc(O)cc2)NC(=O)[C@@H]2C[C@@H](O)CN2C(=O)[C@H]([C@@H](C)O)NC1=O`, the IC50 was 1.2 µM (SLCO1B3 (Homo sapiens, UniProt Q9NPD5); inhibitor).
With `O=C1c2ccccc2C(c2ccccc2)C(=O)N1OCc1ccccc1` (stereo not shown) the IC50 was > 20 µM (Tripartite terminase subunit 3 C-terminal nuclease domain; endonuclease activity, inhibitor; added: dsDNA substrate).
The IC50 of `C[C@H]1COCCN1c1nc(NCc2cccnc2C(F)(F)F)c2cccnc2n1` is reported as > 100 µM (human 5-HT1B receptor).
With `Cc1ccc2sc(NC(=O)c3cc4ccccc4o3)nc2n1` the IC50 was 1.1 ± 0.1 µM (Genome polyprotein NS2B-NS3 protease; inhibitor).
The IC50 of `Cc1nc(Nc2ccc(CC(=O)O)cc2)nc(Nc2ccc(F)c(C(F)(F)F)c2)c1C` is reported as 201 ± 122 µM (PDE4B (Homo sapiens, UniProt Q07343); enzyme activity, inhibitor).
The IC50 of `CNC(C)Cc1ccc2n[se]nc2c1` (stereo not shown) is reported as 22.1 ± 8.6 µM (SLC6A2 (Homo sapiens, UniProt P23975)).
`C=CC(O)CO` (stereo not shown) gave an IC50 of 1200 µM (Cytochrome P450 2E1 (Cyp2e1, Mus musculus, UniProt Q05421); 4-nitrophenol hydroxylation, inhibitor; B6C3F1 mouse, liver microsomes; 30 min, added: 4-nitrophenol 50 µM).
`O=P(O)(O)C(CNc1ccccc1)P(=O)(O)O` gave an IC50 of 63.6 µM and 64 µM (ppk (Escherichia coli, UniProt P0A7B1); enzyme activity, inhibitor).
`CC[C@H](C)[C@H](NC(=O)[C@@H](N)CC(=O)O)C(=O)N[C@@H](CCCNC(=N)N)C(=O)N[C@@H](CCCCN)C(=O)N1CCC[C@H]1C(=O)NCC(=O)N[C@@H](CCC(=O)O)C(=O)N[C@@H](CO)C(=O)N[C@@H](CCC(=O)O)C(=O)N[C@@H](CC(C)C)C(=O)O` has an IC50 of 6.77 µM (DDB1/DCAF12; binding, TR-FRET competition).
With `CC(=O)c1cc(O)c2ccccc2c1O` the IC50 was 7.3 µM (Genome polyprotein, NS5 MTase domain (ZIKV, UniProt A0A024B7W1); binding, displacement; Zika virus).
The IC50 of `C#CCCCCCCCCC(=O)Nc1ccc(-n2nc(OC)oc2=O)cc1` is reported as 0.0199 µM (Uncharacterized hydrolase SAUSA300_2518 (Staphylococcus aureus, UniProt Q2FDS6); enzyme activity, inhibitor; USA300; 1 h preincubation, enzyme 0.5 nM, added: 20 µM 4-MU octanoate).
`COc1cc(Nc2ncc(F)c(Nc3ccc4c(n3)NC(=O)C(C)(C)O4)n2)cc(OC)c1OC` gave an IC50 of > 10 µM (ADORA1 (Homo sapiens, UniProt P30542)).
For `Cc1csc2[nH]c(=O)n(O)c(=O)c12`, the IC50 was 0.38 ± 0.11 µM (Tripartite terminase subunit 3 C-terminal nuclease domain; endonuclease activity, inhibitor; added: dsDNA substrate).
The IC50 of `O=C(Nc1nc2ncccc2s1)c1cc2ccccc2o1` is reported as 0.77 ± 0.05 µM (Genome polyprotein NS2B-NS3 protease; inhibitor).
The IC50 of `CC[C@H](C)[C@H](NC(=O)[C@@H](N)CC(=O)O)C(=O)N[C@@H](CCCNC(=N)N)C(=O)N[C@@H](CCCCN)C(=O)N1CCC[C@H]1C(=O)NCC(=O)N[C@@H](CCC(=O)O)C(=O)N[C@@H](CO)C(=O)N[C@@H](CC(=O)O)C(=O)N[C@@H](CCC(=O)O)C(=O)O` is reported as 137 µM (DDB1/DCAF12; binding, TR-FRET competition).
`COc1cc2c3cc1Oc1cc(ccc1O)C[C@@H]1c4c(cc(OC)c(O)c4Oc4ccc(cc4)C[C@@H]3N(C)CC2)CC[N+]1(C)C` gave an IC50 of 0.073 µM (Chrnd/Chrna1/Chrne (Mus musculus, UniProt P02716+P04756+P20782); endplate current peak height, inhibitor, two-electrode voltage clamp; mouse hemidiaphragm; 4 d, -80 mV, AChE intact, myasthenia IgG-treated mice).
`CN(C)C(=O)C(CCN1CCC(O)(c2ccc(Cl)cc2)CC1)(c1ccccc1)c1ccccc1` has an IC50 of 2.44 ± 0.32 µM (Calcium-activated potassium channel subunit alpha-1, with LRRC26 γ1 subunit (KCNMA1, Homo sapiens, UniProt Q12791); BK channel conductance, inhibitor, inside-out patch clamp; BKα/γ1, Vm 100 mV, nominally Ca2+-free).
`CCOP(=O)(OCC)SC[S+]([O-])CC` (stereo not shown) has an IC50 of 1.4 ± 0.3 µM (ache (Electrophorus electricus, UniProt O42275); enzyme activity, inhibitor).
`N=C(N)NCC(=O)O` gave an IC50 of > 1000 µM (Protein-arginine-phosphatase (ywlE, Bacillus subtilis, UniProt P39155)).
With `CC[C@H](C)[C@H](NC(=O)[C@@H](N)CC(=O)O)C(=O)N[C@@H](CCCNC(=N)N)C(=O)N[C@@H](CCCCN)C(=O)N1CCC[C@H]1C(=O)NCC(=O)N[C@@H](CCC(=O)O)C(=O)N[C@@H](CO)C(=O)N[C@@H](CCC(=O)O)C(=O)N[C@@H](CCCCN)C(=O)O` the IC50 was 48.5 µM (DDB1/DCAF12; binding, TR-FRET competition).
`O=C(NCCCCCCNC(=O)ON=C1CCCCC1)ON=C1CCCCC1` gave an IC50 of 7.44 µM (PLA2G7 (Homo sapiens, UniProt Q13093); enzyme activity, inhibitor; added: FP-biotin 1 µM).
`C[C@H]1CN(c2n[nH]c3nc(N[C@H]4CC[C@H](NS(=O)(=O)CCC(F)(F)F)CC4)ncc23)CCO1` has an IC50 of ≥ 20 µM (CDK9 (Homo sapiens, UniProt P50750); competitor, Kinobeads competition; HEK293, K562, placenta extract).
`N=C(N)NCCC[C@@H]1NC(=O)[C@H](CCCCNC(=O)c2ccc(CNC34CNCCNCC(N)(CNCCNC3)CNCCNC4)cc2)NC(=O)[C@@H](Cc2ccc(O)cc2)NC(=O)[C@H](CC(=O)O)NC(=O)CNC1=O` [copper-64 labelled] has a tissue uptake of 0.19 ± 0.03 %ID/g (microPET; male athymic nude mouse, PC-3 tumour, muscle; intravenous, 7.4 MBq, 2 h).

A few entries again:
The IC50 of `C#CCCCCCCCCC(=O)Nc1ccc(-n2nc(OC)oc2=O)cc1` is reported as 0.0199 µM (Uncharacterized hydrolase SAUSA300_2518 (Staphylococcus aureus, UniProt Q2FDS6); enzyme activity, inhibitor; USA300; 1 h preincubation, enzyme 0.5 nM, added: 20 µM 4-MU octanoate).
`NCCOCC(=O)N1CCC[C@H](C(=O)NCc2nc(-c3ccc(C(F)(F)F)cc3)cs2)C1` has an IC50 of 0.077 µM (20S proteasome (Plasmodium falciparum, UniProt A0A5K1K7U1+Q8I261+Q8IJT1); Succ-LLVY-AMC 0.5 µM, added: WLW-vs 3 µM).
With `CC[C@H](C)[C@H](NC(=O)[C@@H](NC(=O)[C@@H](N)CCC(N)=O)C(C)C)C(=O)N[C@H](C(=O)N[C@H](C(=O)NCC(=O)N[C@@H](CC(N)=O)C(=O)O)[C@@H](C)CC)[C@@H](C)O` the IC50 was 3.43 µM (Protein cereblon, with DDB1 (CRBN, Homo sapiens, UniProt Q96SW2); binding, ligand, TR-FRET displacement).
